Measurements from different studies.
Values joined by “and” are separate records of one study, mostly repeats; a detail may differ. ± gives the spread as reported.

SMILES	cell line	assay	test system	setting	how to read	endpoint	result
CCCCN1C[C@H](O)[C@@H](O)[C@@H](O)[C@H]1CO	sample F patient fibroblasts	Gb3 level lowering, LC-MS/MS, measured: Gb3 d18:1/18:0	–	216 h	–	IC50	6.9 µM
Cn1cc(-c2ccc(-c3cncc(Cl)c3N3CCC4(CCNC4=O)CC3)cc2)cn1	COLO 205	gene expression, microarray, measured: PRKCDBP mRNA	–	concentration not given, 6 h	reference: untreated cells	log2 fold change	-1.67
Nc1ncn([C@H]2C[C@H](O)[C@@H](CO)O2)c(=O)n1	HBL-1	–	–	0.1 µM, 120 h	–	viability	77.6%
COc1cnc2cccc(N3CCc4c(cc(Cn5ccnc5C)cc4-c4cn(C)nc4C(F)(F)F)C3=O)c2c1	RS4	cell growth, inhibitor	–	120 h	–	EC50	0.0452 µM
COc1ccccc1S(=O)(=O)Nc1ccc2c(c1)CN(C)C(=O)N2	HBL-1	–	–	0.5 µM, 120 h	–	viability	114%
COc1ccc(OC)c2c(=S)c3ccccc3[nH]c12	HeLa expressing Ub(G76V)-GFP	Ub(G76V)-GFP degradation, cycloheximide chase	–	12 µM	–	inhibition	-6%
O=C(O)CC[C@H](NC(=O)N[C@@H](CCCCNC(=O)CCCCCCC(=O)NCCCC[C@@H](NC(=O)[C@H](CCC(=O)O)NC(=O)[C@H](CCC(=O)O)NC(=O)CCC(=O)NCCCN1CC[S][Tc]2(=[O])[S]CC[N]2CC1)C(=O)O)C(=O)O)C(=O)O (some centres unmarked) [technetium-99m labelled]	LNCaP	–	–	25 nM, 1 h, 4 °C	–	internalized activity	0.2 ± 0.04 %AD/mg protein
CSc1cccc(Nc2ncc3cc(-c4c(Cl)cccc4Cl)c(=O)n(C)c3n2)c1	hiPSC cardiomyocytes	CellTiter-Glo	–	concentration not given, 24 h	reference: vehicle	ATP level	96.5%
COc1cc2nccc(Oc3ccc(NC(=O)C4(C(=O)Nc5ccc(F)cc5)CC4)cc3)c2cc1OC	A549 and H460 (LKB1-null)	Western blot	–	concentration not given, 1 h	–	AMPK phosphorylation	no effect
CCN(CC)C(=O)c1ccc(Nc2nc(OCC3CCCCC3)c3[nH]cnc3n2)cc1	HeLa expressing Ub(G76V)-GFP	Ub(G76V)-GFP degradation, cycloheximide chase	–	12 µM	–	inhibition	38%
Nc1ncnc2c1ncn2[C@@H]1O[C@H](CO)[C@@H](O)[C@H]1O	activated human T cells	–	–	100 µM	higher = more TNF	TNF production	1550 a.u. and 2130 a.u. and 1690 a.u.
CCOc1cc2ncnc(Nc3cccc(Br)c3)c2cc1OCC	HeLa expressing Ub(G76V)-GFP	Ub(G76V)-GFP degradation, inhibitor, cycloheximide chase	–	12 µM	–	inhibition	25%
CCCOc1nc(-c2cccc(O)c2)cc(-c2cc3ccccc3nc2N2CCOCC2)c1C#N	NFS-60	MTT	–	–	reference: WI-38 EC50 over NFS-60 IC50	selectivity ratio	0.801
COc1cc(/C=C/C(=O)N2CCC=CC2=O)cc(OC)c1OC	MDA-MB-468	qRT-PCR, measured: GPX7	–	30 µM, 6 h	reference: time zero	mRNA level	89.9 ± 19.8%
O=C1NC(=O)c2cc(Nc3ccc(F)cc3)c(Nc3ccc(F)cc3)cc21	HeLa expressing Ub(G76V)-GFP	Ub(G76V)-GFP degradation, cycloheximide chase	–	12 µM	–	inhibition	76%
C#CCNS(=O)(=O)c1ccc(CCN(Cc2cc(Cl)ccc2OCCC)C(=O)c2ccc(F)cc2)cc1	J774A.1	ELISA	–	concentration not given, 16 h, together with: LPS 1 µg/mL	–	IL-6 level	no inhibition
Cc1c(C(=O)O)ccc2c3n(nc12)[C@@H]1[C@H](C3)N(CC2CC2)[C@@]2(C(=O)Nc3cc(Cl)ccc32)[C@H]1c1cccc(Cl)c1F	SW982 (MDM2 non-amplified)	cell proliferation, alamarBlue	–	120 h	–	GI50	0.008 µM
CCCC(CCC)C(=O)O	HBL-1	–	–	1 µM, 120 h	–	viability	98.8%
OCc1ccc(Nc2ccc3c(Nc4cccc(C(F)(F)F)c4)ncnc3c2)cc1	MDA-MB-231	annexin V-PE/DAPI	–	concentration not given, 24 h	–	late apoptotic cells	5.02%
CCCCc1oc2ccc(NS(C)(=O)=O)cc2c1C(=O)c1ccc(OCCCN(CCCC)CCCC)cc1	human embryonic stem cell aggregates	mRNA level, microarray, measured: KITLG	–	0.5 µM, 120 h	reference: untreated, up-regulated	fold change	1.8 fold
COc1cc2c(cc1-c1c(C)noc1C)ncc1[nH]c(=O)n([C@H](C)c3ccccn3)c12	HBL-1	–	–	0.5 µM, 120 h	–	viability	39.1%
C[C@H]1[C@@H](O)O[C@@H]2O[C@@]3(C)CC[C@H]4[C@H](C)CC[C@@H]1[C@@]24OO3	MV4-11 cells	lysosomal disruption, flow cytometry	–	5 µM, 24 h	–	LysoTracker Red positive cells	15.7%

SMILES	cell line	assay	test system	setting	how to read	endpoint	result
O=C1Nc2ccc(Cl)cc2/C1=C/c1cc(Cl)c(O)c(Cl)c1	HeLa expressing Ub(G76V)-GFP	Ub(G76V)-GFP degradation, cycloheximide chase	–	12 µM	–	inhibition	25%
COc1cc2ncnc(Nc3ccc(Oc4ccccc4)cc3C)c2cc1OC.O=C(O)C(F)(F)F	NCI-H2087 (BRAF L597V)	–	–	0.3 µM, together with: trametinib 0 nM	–	fractional effect	0.145
O=C1c2ccccc2-c2n[nH]c3cccc1c23	HeLa expressing Ub(G76V)-GFP	Ub(G76V)-GFP degradation, cycloheximide chase	–	12 µM	–	inhibition	39%
O=C(C[C@@H](C(F)F)n1ccc(F)n1)N1CCC(O)(Cn2cnc3c(cnn3-c3ccc(F)cc3)c2=O)CC1	CHP-212 resistant cells (pooled)	PI flow cytometry	–	0.3 µM, 24 h	–	cells in G2/M phase	10.2% and 13.8% and 15.5%
C=CC(=O)N1CCCN(C(=O)c2cc(Sc3cnc(NC(=O)C4CC4)s3)c(C)cc2OC)C[C@H]1C	human CD4 T cells	flow cytometry	–	concentration not given, together with: anti-CD3/CD28 crosslinking	–	ERK phosphorylation	inhibited
COC1=CC(c2cc3ccccc3[nH]2)=N/C1=C\c1[nH]c(C)cc1C	BT-12	cell viability, MTT	–	10 µM, 72 h	–	inhibition	94.1%
CC1=NN(c2ccc(C(=O)O)cc2)C(=O)/C1=C\c1ccc(-c2cc(C)c(C)cc2[N+](=O)[O-])o1	HBL-1	–	–	0.1 µM, 120 h	–	viability	112%
O=c1[nH]nc(OCCCc2ccc(Cl)cc2)c(NCc2cccnc2)c1Br	HEK293T	RNA-seq, measured: ASNS mRNA	–	10 µM, 6 h	reference: vehicle	log2 fold change	1.76
CC/C(=N\NC(=O)NCc1cccc(O)c1)c1ccc(O)c(C)c1O	SK-OV-3	microarray, measured: CTGF	3D culture in gellan gum	10 µM, 24 h	reference: DMSO	log ratio of mRNA level	4.46
Nc1ncn([C@@H]2O[C@H](CO)[C@@H](O)[C@H]2O)c(=O)n1	HBL-1	–	–	0.1 µM, 120 h	–	viability	128%
CC[S+]([O-])c1nc(-c2ccccc2)cc(C(F)(F)F)n1 (centres unmarked)	HeLa Kyoto	RelA nuclear import, high content imaging	–	0.16 µM, 3 h, together with: 1 µM PMA, 60 min	–	cells with nuclear RelA	79.1% and 74.1%
NC(=O)Nc1sc(-c2ccc(F)cc2)cc1C(N)=O	HeLa expressing Ub(G76V)-GFP	Ub(G76V)-GFP degradation, cycloheximide chase	–	12 µM	–	inhibition	23%
CCn1cc(-c2cc(Cn3ccnc3)cc3c2CCN([C@H](c2cc(OC)ccn2)C2CC2)C3=O)c(C(F)(F)F)n1	G-402	cell growth, inhibitor	–	120 h	–	EC50	7.44 µM
O=C(/C=C/C=C/C=C/C1CCCCC1)NC1=C[C@@](O)(/C=C/C=C/C=C/C(=O)NC2=C(O)CCC2=O)[C@@H]2O[C@@H]2C1=O	RPMI-7951	cell growth, CellTiter-Glo	–	78 h	–	GI50	17 µM
CC(Nc1nc(N2CCCC2)nc2ccccc12)c1ccccc1 (centres unmarked)	HeLa Kyoto	RelA nuclear import, high content imaging	–	5.01 µM, 3 h, together with: 1 µM PMA, 60 min	–	cells with nuclear RelA	81.2% and 75.4%
Cc1cnc2ccc3c(c2n1)N1CCC(O)N=C1N3C (centres unmarked)	BALB/c 3T3	colony formation	–	1 µM	–	plating efficiency	43%
Cc1cc(C2CCCCC2)n(O)c(=O)c1.NCCO	BT-12	cell viability, MTT	–	10 µM, 72 h	–	inhibition	86.1%
CC(C)(c1ccc(O)cc1)c1ccc(O)cc1	HepG2 spheroids	Hoechst flow cytometry	–	1 µM, 96 h	–	G2 phase cells	15 ± 6.49%
Nc1cccc2c1C(=O)N(C1CCC(=O)NC1=O)C2=O (centres unmarked)	RPMI-8226	flow cytometry, measured: CD209	–	concentration not given	reference: comparator compound alone	surface marker level	59.4%
CCC/N=C1\S/C(=C\c2ccc(OC[C@H](O)CO)c(Cl)c2)C(=O)N1c1ccccc1C	human primary astrocytes	single-cell RNA-seq, measured: TUBA1B mRNA	–	concentration not given, 48 h, together with: cytokine stimulation	reference: cytokine alone	log2 fold change	0.393
COCCn1c2c([n+](Cc3cnccn3)c1C)C(=O)c1ccccc1C2=O	BT-12	cell viability, MTT	–	10 µM, 72 h	–	inhibition	95.3%
CC(=O)OC[C@H]1O[C@@H]([S-])[C@H](OC(C)=O)[C@@H](OC(C)=O)[C@@H]1OC(C)=O.CCP(CC)CC.[Au+]	SH-SY5Y Neh2-luc reporter	–	–	concentration not given, 3 h	reference: background	reporter activation	> 20 fold
